Assay results gathered from unrelated publications.
Parts stem from different laboratories: compare values within a part only.

Block 1 — method: protein-binding microarray; form: double-stranded DNA, one strand shown; sample: in vitro; concentration: 940 nM top; setting: 60-bp whole probe; together with: salmon DNA 0.4 mg/ml; relative to: random background probes; direction: higher = stronger binding
Target: Interferon regulatory factor 5, full length, phosphomimetic (IRF5, Homo sapiens, UniProt Q13568-2, residues 1-514, S451D/S453D/S456D/S462D)
Shared flanks, not repeated: GCCTAGCAC … GTGCTAGGTCTTGATTCGCTTGACGCTGCTG
For `TACGGTTTCCTTCTCCTGAC`, “fitted relative affinity” read 1.53 z-score.
Under “fitted relative affinity”, `GACGGTTTCCTACTGCTGAA` is recorded as 0.906 z-score.
Under “fitted relative affinity”, `TCAGATTTCAGTTCCGATTA` is recorded as 2.22 z-score.
For `TCACCACCCGCTCTGGCACT`, “fitted relative affinity” read -0.0855 z-score.
For `GTATTTTTCTAAACCATTTT`, “fitted relative affinity” read 0.921 z-score.
`GACGGTTTCAGTTTCGAGAC` — result for “fitted relative affinity”: 7.5 z-score.
Under “fitted relative affinity”, `GAAGAACTGAGTTTCGAGAC` is recorded as 3.28 z-score.
`GACGGTTTCCTTTCCCGGAC`: “fitted relative affinity” 2.78 z-score.

Block 2 — method: protein binding microarray; form: double-stranded DNA, one strand shown; sample: in vitro; concentration: not given; relative to: not given; direction: higher = stronger binding
Target: Histone acetyltransferase KAT6A, both winged helices, GST fusion (KAT6A, Homo sapiens, UniProt Q92794, residues 1-181)
Setting: 8-mer, flanks averaged, mean of 2 arrays, mostly near background
Construct (chain): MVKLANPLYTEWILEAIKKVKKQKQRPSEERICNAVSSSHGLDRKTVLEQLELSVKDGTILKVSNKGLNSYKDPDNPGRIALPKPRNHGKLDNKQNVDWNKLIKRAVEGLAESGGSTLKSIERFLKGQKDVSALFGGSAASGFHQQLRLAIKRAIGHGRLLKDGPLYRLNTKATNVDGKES
For `ATCCGTGC`, the E-score was 0.209.
For `ACAAATCG`, the E-score was 0.0383.
`CGTGCTTC` has an E-score of -0.0513.
For `GAACTATC`, the E-score was -0.132.
With `GTCAAGTA` the E-score was -0.129.
The E-score of `CGGCGTGC` is reported as 0.268.
`AGCGGACG` has an E-score of 0.264.
For `CTCCCAAC`, the E-score was -0.128.

Block 3 — organism: SARS-CoV-2; effect on: cytopathic effect; cells: Vero E6; concentration: 10 µM
`O=C(CCl)c1ccccc1` gave an inhibition of 5.2%.
The inhibition of `Cc1cc(-c2ccc(/C=C3/SC(Nc4ccc(Cl)c(C(=O)O)c4)=NC3=O)o2)c([N+](=O)[O-])cc1C` is reported as -5.1%.
For `CN1CCN(C(=O)c2ccc(-c3ccc4c(C=O)c(O)ccc4c3)s2)CC1`, the inhibition was -2.7%.
For `CCN(CC)S(=O)(=O)c1cccc(-n2sc3ccccc3c2=O)c1`, the inhibition was 5%.

Block 4 — method: universal PBM; form: double-stranded DNA, one strand shown; sample: in vitro; concentration: not given; direction: higher = stronger binding
Target: Sal-like protein 4, full length isoform B (SALL4, Homo sapiens, UniProt Q9UJQ4-2, residues 1-616)
Setting: 8-mer, flanks averaged, mean of replicates
The E-score of `ACCGGGAT` is reported as -0.269.
For `TTACTAAA`, the E-score was 0.271.
`AAGGAGCC` has an E-score of -0.226.
The E-score of `GGCGTACA` is reported as -0.164.
`AAATTGCA` has an E-score of 0.199.
The E-score of `CTAAGCAC` is reported as -0.112.
For `GGCTTATA`, the E-score was 0.222.
With `AAATGCAG` the E-score was -0.0115.

Block 5 — effect on: enzyme activity; mode: inhibitor; concentration: 20 µM
Target: Replicase polyprotein 1ab, polymerase (rep, Severe acute respiratory syndrome coronavirus 2, UniProt P0DTD1)
With `C[C@@H]1C[C@H]2[C@@H]3CCC4=CC(=O)C=C[C@]4(C)[C@@]3(Cl)[C@@H](O)C[C@]2(C)[C@@]1(OC(=O)c1ccco1)C(=O)CCl` the inhibition was 0.84%.
`CC(=O)OCC(=O)[C@@]1(O)CC[C@H]2[C@@H]3CCC4=CC(=O)CC[C@]4(C)[C@H]3[C@@H](O)C[C@@]21C` gave an inhibition of 9.48%.
The inhibition of `CN1Cc2ccccc2[C@@H]2c3cccc4[nH]cc(c34)C[C@H]21` is reported as 16%.
The inhibition of `CC12CCC(C(=O)N(CCCCN3CCN(c4ccccn4)CC3)C1=O)C2(C)C` (centres unmarked) is reported as 7.7%.
With `Cc1ccccc1N1C(=O)c2cc(S(N)(=O)=O)c(Cl)cc2NC1C` (centres unmarked) the inhibition was 3.28%.
`C/C=C1/[C@H](O[C@@H]2O[C@H](CO)[C@@H](O)[C@H](O)[C@H]2O)OC=C(C(=O)OC)[C@H]1CC(=O)OCCc1ccc(O)c(O)c1` has an inhibition of 1.08%.
`CCCCCCCCCCCCCCCC(=O)C(F)(F)F` has an inhibition of 2.14%.
With `O=C(NCCCCCCNC(=O)ON=C1CCCCC1)ON=C1CCCCC1` the inhibition was -3.36%.
With `CC(C)OC(=O)c1cc2c(OCC(O)CNC(C)(C)C)cccc2[nH]1` (centres unmarked) the inhibition was -6.17%.
For `O=c1ccc2ccccc2o1`, the inhibition was -7.36%.
For `Cc1cc(CC(=O)O)n(C)c1C(=O)c1ccc(Cl)cc1`, the inhibition was -2.08%.
The inhibition of `Nc1ccc(S(=O)(=O)c2ccc(N)cc2)cc1` is reported as -1.02%.
`Nc1nc2c(ncn2[C@@H]2O[C@H](CO)[C@@H](O)[C@H]2O)c(=O)[nH]1` has an inhibition of -1.97%.
`CCCCCCC[N+](CC)(CC)CCCCc1ccc(Cl)cc1` gave an inhibition of -9.15%.
The inhibition of `Cn1ncnc1[C@H]1c2n[nH]c(=O)c3cc(F)cc(c23)N[C@@H]1c1ccc(F)cc1` is reported as -5.72%.
With `C=C(C)[C@@H]1CCC(C)=C[C@H]1c1c(OC)cc(C)cc1OC` the inhibition was -4.54%.
With `COc1cccc(OC)c1-c1ccc(C[C@H](NC(=O)c2c(Cl)cccc2Cl)C(=O)O)cc1` the inhibition was -0.99%.
With `Cc1nc(-c2ccc(OCC(C)C)c(C#N)c2)sc1C(=O)O` the inhibition was 6.46%.
With `CC(C)Oc1ccc(-c2nn([C@@H](C)c3oc4ccc(F)cc4c(=O)c3-c3cccc(F)c3)c3ncnc(N)c23)cc1F` the inhibition was 1.71%.
For `O=C(N[C@H]1CN2CCC1CC2)c1cc2cccc(Cl)c2s1`, the inhibition was -1.1%.
The inhibition of `Cc1[nH]c(/C=C2\C(=O)Nc3ccc(S(=O)(=O)N(C)c4cccc(Cl)c4)cc32)c(C)c1C(=O)N1CCN(C)CC1` is reported as -5.09%.
`C1=N/C2=N/c3ccc(OCCN4CCCC4)c(c3)COC/C=C/COCc3cccc(c3)C(=C1)N2` gave an inhibition of -1.59%.
With `COc1cc([S+](C)[O-])ccc1-c1nc2cccnc2[nH]1` (centres unmarked) the inhibition was 0.85%.
`Nc1ccc(-c2ccc3ncc4ccc(=O)n(-c5cccc(C(F)(F)F)c5)c4c3c2)cn1` gave an inhibition of -3.88%.
The inhibition of `C=C[C@H]1CN2CC[C@H]1C[C@H]2[C@H](O)c1ccnc2ccccc12` is reported as 3.41%.

Repeated from above (block 5):
For `O=c1ccc2ccccc2o1`, the inhibition was -7.36%.
For `Cc1cc(CC(=O)O)n(C)c1C(=O)c1ccc(Cl)cc1`, the inhibition was -2.08%.
The inhibition of `Nc1ccc(S(=O)(=O)c2ccc(N)cc2)cc1` is reported as -1.02%.
`Nc1nc2c(ncn2[C@@H]2O[C@H](CO)[C@@H](O)[C@H]2O)c(=O)[nH]1` has an inhibition of -1.97%.
`CCCCCCC[N+](CC)(CC)CCCCc1ccc(Cl)cc1` gave an inhibition of -9.15%.
The inhibition of `Cn1ncnc1[C@H]1c2n[nH]c(=O)c3cc(F)cc(c23)N[C@@H]1c1ccc(F)cc1` is reported as -5.72%.
